{"data": "Measured values pooled from the literature", "note": "Numbered parts are unrelated; each lists some results of a single study. Changes are numbered by the printed parent chain."}
{"data": "Study 1", "target": "CCNA2, cyclin fold, Cln2 fusion (human)", "technique": "yeast growth competition, sequencing", "medium": "yeast", "notes": "strong parent motif", "relative to": "not given", "direction": "higher = stronger binding", "parent": "E2F3 docking peptide (human); PPAKRRLELGESG"}
{"Change": "G13A", "normalised enrichment score": 4.66}
{"Change": "R5K L9F", "normalised enrichment score": 6.59}
{"Change": "R5A L7A", "normalised enrichment score": 0.108}
{"Change": "K4A", "normalised enrichment score": 2.66}
{"Change": "P1A", "normalised enrichment score": 4.13}
{"Change": "R5K", "normalised enrichment score": 3.56}
{"Change": "S12A", "normalised enrichment score": 5.22}
{"Change": "L9A", "normalised enrichment score": 0.713}
{"Change": "P2A", "normalised enrichment score": 5.1}
{"data": "Study 2", "target": "Interferon regulatory factor 7, full length, phosphomimetic (IRF7, Homo sapiens, UniProt Q92985, residues 1-503, S101K/S471D/S472D/S475D/S476D/S477D/S483D/S484D/S487D)", "technique": "protein-binding microarray", "molecule type": "double-stranded DNA, one strand shown", "medium": "in vitro", "tested at": "250 nM", "notes": "60-bp whole probe", "added": "salmon DNA 0.4 mg/ml", "relative to": "random background probes", "direction": "higher = stronger binding", "constant ends, left off below": "GCCTAGCAC … GTCTTGATTCGCTTGACGCTGCTG", "chain of UniProt Q92985 (whole entry, unmodified, looked up)": "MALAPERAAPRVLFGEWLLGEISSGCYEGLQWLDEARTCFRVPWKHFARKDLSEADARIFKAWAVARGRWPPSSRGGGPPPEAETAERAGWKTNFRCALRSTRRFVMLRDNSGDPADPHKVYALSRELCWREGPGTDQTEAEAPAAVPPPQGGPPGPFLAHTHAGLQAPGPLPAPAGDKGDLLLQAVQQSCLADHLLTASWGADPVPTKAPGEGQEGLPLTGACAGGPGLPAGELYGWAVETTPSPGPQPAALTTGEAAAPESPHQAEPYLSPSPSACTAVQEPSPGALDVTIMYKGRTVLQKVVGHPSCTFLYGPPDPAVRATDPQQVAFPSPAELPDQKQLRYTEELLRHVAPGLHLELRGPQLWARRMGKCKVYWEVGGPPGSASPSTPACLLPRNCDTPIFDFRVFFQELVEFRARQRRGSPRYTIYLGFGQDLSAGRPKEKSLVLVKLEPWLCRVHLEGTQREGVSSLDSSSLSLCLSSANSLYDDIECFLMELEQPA"}
{"Strand": "TTAGGTATCGGTCTGGGTTAGTGCTAG", "log fluorescence [z-score]": 0.588}
{"Strand": "TTAGATATCCGTATCGATTAGTGCTAG", "log fluorescence [z-score]": 0.275}
{"Strand": "TTAGGTATCGACTATCGGTTCGTGCTA", "log fluorescence [z-score]": 0.37}
{"Strand": "GACGGTATCCTACTGCAGACGTGCTAG", "log fluorescence [z-score]": 0.0502}
{"Strand": "GCCTCTAGGTTTTCTGGAGACGTGCTA", "log fluorescence [z-score]": -0.0523}
{"Strand": "TTAGGTTTCGACTATCCGTTAGTGCTA", "log fluorescence [z-score]": 5.53}
{"Strand": "TCACCTATCTCCTCACAGACTGTGCTA", "log fluorescence [z-score]": 0.376}
{"Strand": "GACTGTCTCCTTTTCCTGACGTGCTAG", "log fluorescence [z-score]": 0.782}
{"Strand": "TCAATTGTGGGTCTTGCACTGTGCTAG", "log fluorescence [z-score]": -0.623}
{"Strand": "TTAGGTATCGGGACTGGGTGAGTGCTA", "log fluorescence [z-score]": 0.0217}
{"Strand": "GACGATATCAGACTGGGGACGTGCTAG", "log fluorescence [z-score]": 0.0784}
{"Strand": "GACGGTTTTCTTATCCTGACGTGCTAG", "log fluorescence [z-score]": 1.43}
{"Strand": "AGAGCAGACCCAGAGTGGCAGTGCTAG", "log fluorescence [z-score]": -0.733}
{"Strand": "GACGGTTTCGGTTCCGGTACGTGCTAG", "log fluorescence [z-score]": 12.6}
{"Strand": "TTATGACTGGACTATCGGTTAGTGCTA", "log fluorescence [z-score]": -0.151}
{"Strand": "TCACTCATGGCTTTGTAACTGTGCTAG", "log fluorescence [z-score]": -0.203}
{"Strand": "GCCATTATGAGTCTTGAAGAGTGCTAG", "log fluorescence [z-score]": -0.104}
{"Strand": "GACGGGCTGGACTTTCGGGACGTGCTA", "log fluorescence [z-score]": -0.796}
{"Strand": "CAGTAGATGGCGCCTGAGAGGTGCTAG", "log fluorescence [z-score]": -0.553}
{"Strand": "TTAGGAGTGCTTCTCCTTTAGTGCTAG", "log fluorescence [z-score]": -0.429}
{"Strand": "GACGGTTCCCTTTTCCTGTCGTGCTAG", "log fluorescence [z-score]": 3.69}
{"Strand": "GACGGTTTCTTTATCCTGACGTGCTAG", "log fluorescence [z-score]": 3.01}
{"data": "Study 3", "target": "Histone acetyltransferase KAT6A, winged helix 1, GST fusion (KAT6A, Homo sapiens, UniProt Q92794, residues 1-85)", "technique": "protein binding microarray", "molecule type": "double-stranded DNA, one strand shown", "medium": "in vitro", "tested at": "not given", "notes": "8-mer, flanks averaged, mean of 2 arrays, mostly near background", "relative to": "not given", "direction": "higher = stronger binding", "Construct (chain)": "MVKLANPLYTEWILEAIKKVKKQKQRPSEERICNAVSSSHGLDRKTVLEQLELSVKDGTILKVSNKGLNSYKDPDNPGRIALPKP"}
{"Strand": "GATGGGGC", "E-score": -0.0279}
{"Strand": "CGTTGGTC", "E-score": -0.155}
{"Strand": "AACCGTAA", "E-score": 0.25}
{"Strand": "AGGTACAC", "E-score": -0.0535}
{"Strand": "GAATCTCA", "E-score": -0.198}
{"Strand": "ATCTTGGA", "E-score": -0.296}
{"Strand": "CTTTTCGC", "E-score": 0.0796}
{"Strand": "GCGACGGA", "E-score": 0.374}
{"Strand": "ATCAAAGA", "E-score": -0.282}
{"Strand": "CCCAACGG", "E-score": 0.0391}
{"Strand": "AGCGTACG", "E-score": 0.332}
{"Strand": "CGAGTTAC", "E-score": 0.04}
{"Strand": "ATAGTCAC", "E-score": -0.115}
{"Strand": "AGCTAGGA", "E-score": -0.177}
{"Strand": "AGGCAGAC", "E-score": -0.152}
{"Strand": "TGGTTAAA", "E-score": -0.103}
{"Strand": "TCAATCAA", "E-score": -0.0957}
{"Strand": "ATGGCCGA", "E-score": 0.0139}
{"Strand": "AAACTAGT", "E-score": -0.0246}
{"Strand": "ACGTGATG", "E-score": -0.189}
{"Strand": "GAGTCGGC", "E-score": 0.212}
{"Strand": "CACAAGAG", "E-score": -0.196}
{"Strand": "ACACCTAT", "E-score": -0.0278}
{"Strand": "CCGCCGAG", "E-score": 0.354}
{"Strand": "ACCTTTGA", "E-score": -0.141}
{"data": "Study 4", "target": "RNA binding protein fox-1 homolog 2, RRM domain, GST-SBP tag (RBFOX2, Homo sapiens, UniProt O43251-10, residues 100-194)", "technique": "RNA Bind-n-Seq", "molecule type": "RNA", "medium": "in vitro", "tested at": "365 nM", "notes": "natural RNA segment, single round, ends assumed", "relative to": "no-protein control", "direction": "higher = stronger binding", "Target sequence (chain)": "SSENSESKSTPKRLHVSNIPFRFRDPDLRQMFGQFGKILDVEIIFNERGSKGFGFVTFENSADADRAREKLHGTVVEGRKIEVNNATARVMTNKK"}
{"Strand": "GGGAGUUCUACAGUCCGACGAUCCCCGAAGAGACCCGGAACCAAGACCAUGGCAGGGCCUGCGUGGAAGCAGGUCCAGGCGUUUCUAGAACCCUAGGGUGCACCAUCACUGUCUUUUCAGUGCAGGCUGUAACUGGAAUUCUCGGGUGCCAA", "RBNS enrichment (R)": 0.272}
{"Strand": "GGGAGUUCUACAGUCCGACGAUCACCCACAACUAAAAAUGUAUCCACAUAGUAGUGUUCGUUUGUCGAGAGGAUUUCCUGAGACUGGUUUGGAUCUCCCUGCAUGACAGUCCCCCAGAAACUUAGUGAGUCCUUGGAAUUCUCGGGUGCCAA", "RBNS enrichment (R)": 13.4}
{"Strand": "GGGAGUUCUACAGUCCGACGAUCCUAGUAUCAGGGUGGGUGAUAGAACCCGAAAUGGAAGAGGACGGGAAAGUGCCUGGGCUGUGCUUGUGACCGGCAGUACAGUGCCAUCCUGGAGGUGACUGGAGUAGCUGUGGAAUUCUCGGGUGCCAA", "RBNS enrichment (R)": 1.32}
{"Strand": "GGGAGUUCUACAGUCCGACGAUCGGAAACCAAACCCUCCCACAGUUCCCAAGCAGACACUGGAAGCAGAGGCUUCUCACCCUUCCUGCUUUUUCACCACAAUCACCUUGAGCUCGUCCCUUGGACUAGAGUCUUGGAAUUCUCGGGUGCCAA", "RBNS enrichment (R)": 0.327}
{"Strand": "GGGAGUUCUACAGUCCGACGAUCUUUGAUUCACUUGCUUUGUUUUCUGUUUUUUUUAAUAGCUAUUAUAAAGAGGUACAAUAAGCAGCUAUUCACAGACACCUGGGUGGUUCCUAUACCUGCCCAGGACAUCUUGGAAUUCUCGGGUGCCAA", "RBNS enrichment (R)": 0.35}
{"Strand": "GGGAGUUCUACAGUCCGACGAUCAUAAGAUCACUUCAUUUUCAACUUAGACCCACCGUUUCUUUUUUGUUGUUUUGUUUUGUUUGGUUUGGUUUGGUUGGGUUGGGUUGUUGUUUUUGGUUUUUUCGAGACAGUGGAAUUCUCGGGUGCCAA", "RBNS enrichment (R)": 13.7}
{"Strand": "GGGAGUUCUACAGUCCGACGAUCCACCAUUCAGGAACCUGGACCAAAGCUGACGAGGCUGGGCCAAGCCAGGGAUGGGGCCACAGCCAGAACCCCGAGCCCUACUUCCAGGUUCUGGUUAGCUCAGCCCCAGCUGGAAUUCUCGGGUGCCAA", "RBNS enrichment (R)": 0.332}
{"Strand": "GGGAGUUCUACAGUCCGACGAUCUUAUUCUAUUUUGUACAGACAAGUUGGGAAAACAACAGCGACAAAAAAAAGUCGAGAAACUUUGUAAAAUAUUGUGUGUGUGAUUCCUUGUAAAAUAUUUUCAAAUGGUUUGGAAUUCUCGGGUGCCAA", "RBNS enrichment (R)": 0.958}
{"Strand": "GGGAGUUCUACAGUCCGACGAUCUUGUUUUUCAGAAAUUCCUGGGUUUCCUGUUAAAAAAUCUUAAAGCCCAACCUUAGGAAUAUAGUGCCCCAAAAGGCGGAUGCUUCUUCCAUUAUCUUAUUUUCUUUGAUUGGAAUUCUCGGGUGCCAA", "RBNS enrichment (R)": 0.676}
{"Strand": "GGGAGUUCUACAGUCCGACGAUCUGCAUUGGGGCUGCCUUUCUGUUUGGCUUAGGAACUUCUGUGCUUCUUGUGGCUCCACUCGCGAGGCAGCUCGGAGGUGUGGACUCCGAUUGGGCUGCAGGCAGCUCUGGUGGAAUUCUCGGGUGCCAA", "RBNS enrichment (R)": 1}
{"Strand": "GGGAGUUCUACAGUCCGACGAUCGCUGUUUCUUUUAAAUCCUCUGUGCACAGGGCUCUGGCCUUUAGUAAACUGUUUUUCUGUCUUACGUCAUGCUGACUGGGUGCUAGGGGCUGAUUACAAAGGGGAAGAGUUGGAAUUCUCGGGUGCCAA", "RBNS enrichment (R)": 0.621}
{"Strand": "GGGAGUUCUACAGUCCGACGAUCUUCAUCUGGGUGGUCCAGAUAGUAAAGCGCUUUUAUUUCUGGAGCUGGGGAAGCAGAUGACUCUUCCACUGGGGCGGAAGGGGCACCCACUGUGUCCCGAAGGGGCAGUCUGGAAUUCUCGGGUGCCAA", "RBNS enrichment (R)": 0.525}
{"note": "For quick reference, copied from above (study 4):"}
{"Strand": "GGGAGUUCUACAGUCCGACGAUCACCCACAACUAAAAAUGUAUCCACAUAGUAGUGUUCGUUUGUCGAGAGGAUUUCCUGAGACUGGUUUGGAUCUCCCUGCAUGACAGUCCCCCAGAAACUUAGUGAGUCCUUGGAAUUCUCGGGUGCCAA", "RBNS enrichment (R)": 13.4}
{"Strand": "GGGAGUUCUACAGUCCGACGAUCCCCGAAGAGACCCGGAACCAAGACCAUGGCAGGGCCUGCGUGGAAGCAGGUCCAGGCGUUUCUAGAACCCUAGGGUGCACCAUCACUGUCUUUUCAGUGCAGGCUGUAACUGGAAUUCUCGGGUGCCAA", "RBNS enrichment (R)": 0.272}
{"Strand": "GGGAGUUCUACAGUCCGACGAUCCACCAUUCAGGAACCUGGACCAAAGCUGACGAGGCUGGGCCAAGCCAGGGAUGGGGCCACAGCCAGAACCCCGAGCCCUACUUCCAGGUUCUGGUUAGCUCAGCCCCAGCUGGAAUUCUCGGGUGCCAA", "RBNS enrichment (R)": 0.332}
{"Strand": "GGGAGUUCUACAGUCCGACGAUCAUAAGAUCACUUCAUUUUCAACUUAGACCCACCGUUUCUUUUUUGUUGUUUUGUUUUGUUUGGUUUGGUUUGGUUGGGUUGGGUUGUUGUUUUUGGUUUUUUCGAGACAGUGGAAUUCUCGGGUGCCAA", "RBNS enrichment (R)": 13.7}
{"Strand": "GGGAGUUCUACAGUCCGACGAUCCUAGUAUCAGGGUGGGUGAUAGAACCCGAAAUGGAAGAGGACGGGAAAGUGCCUGGGCUGUGCUUGUGACCGGCAGUACAGUGCCAUCCUGGAGGUGACUGGAGUAGCUGUGGAAUUCUCGGGUGCCAA", "RBNS enrichment (R)": 1.32}
{"Strand": "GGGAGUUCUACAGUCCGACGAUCGGAAACCAAACCCUCCCACAGUUCCCAAGCAGACACUGGAAGCAGAGGCUUCUCACCCUUCCUGCUUUUUCACCACAAUCACCUUGAGCUCGUCCCUUGGACUAGAGUCUUGGAAUUCUCGGGUGCCAA", "RBNS enrichment (R)": 0.327}
{"Strand": "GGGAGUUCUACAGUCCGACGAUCUUAUUCUAUUUUGUACAGACAAGUUGGGAAAACAACAGCGACAAAAAAAAGUCGAGAAACUUUGUAAAAUAUUGUGUGUGUGAUUCCUUGUAAAAUAUUUUCAAAUGGUUUGGAAUUCUCGGGUGCCAA", "RBNS enrichment (R)": 0.958}
{"Strand": "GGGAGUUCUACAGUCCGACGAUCUUCAUCUGGGUGGUCCAGAUAGUAAAGCGCUUUUAUUUCUGGAGCUGGGGAAGCAGAUGACUCUUCCACUGGGGCGGAAGGGGCACCCACUGUGUCCCGAAGGGGCAGUCUGGAAUUCUCGGGUGCCAA", "RBNS enrichment (R)": 0.525}
